# Measurements collected from several papers.
# A part holds a random share of what one study measured.

# Block 1 — method: protein-binding microarray; form: double-stranded DNA, one strand shown; sample: in vitro; tested at: 940 nM top; notes: 60-bp whole probe; together with: salmon DNA 0.4 mg/ml; relative to: random background probes; direction: higher = stronger binding
# Target: Interferon regulatory factor 5, full length, phosphomimetic (IRF5, Homo sapiens, UniProt Q13568-2, residues 1-514, S451D/S453D/S456D/S462D)
Sequence,fitted relative affinity [z-score]
GCCTAGCACGACGGTTTAGGTATCGGGACGTGCTAGGTCTTGATTCGCTTGACGCTGCTG,2.14
GCCTAGCACTAAGATTCCAGTTTCGATTAGTGCTAGGTCTTGATTCGCTTGACGCTGCTG,8.72
GCCTAGCACTTAGATCTCAGACTGGTTTAGTGCTAGGTCTTGATTCGCTTGACGCTGCTG,-0.298

# Block 2 — method: aptamer microarray, sandwich; form: DNA with 2'F-ANA; sample: in vitro; tested at: 200 nM; together with: Cy3 exosite-II aptamer, 400 nM; direction: higher = stronger binding
# Target: Prothrombin, mature alpha-thrombin (F2, Homo sapiens, UniProt P00734)
# Notes: whole 15-mer aptamer, many near background
Sequence,mean fluorescence intensity
GGTTGGTGTGGTTGG (2'F-ANA at 1 3 4 5 8 13 14),43.7 a.u.
GGTTGGTGTGGTTGG (2'F-ANA at 2 3 4 7 9 15),608 a.u.
GGTTGGTGTGGTTGG (2'F-ANA at 3 5 7 8 9 10 12 13),80.5 a.u.

# Further values, each from its own experiment
# SALL4 full length isoform B: Sal-like protein 4, full length isoform B (SALL4, Homo sapiens, UniProt Q9UJQ4-2, residues 1-616)
Substance,target,test,system,conditions,scale,endpoint,value
GTTCTAGA,SALL4 full length isoform B,universal PBM,"double-stranded DNA, one strand shown, in vitro","not given, 8-mer, flanks averaged, mean of replicates",higher = stronger binding,E-score,0.0247
"PhoQ, residues 284 288 289 292 302 303 TVTVVA","PhoP, residues 12 14 15 18 19 IQSYL (Escherichia coli, UniProt P23836)","Sort-seq, item: YFP reporter",E. coli,"PhoQ-PhoP variant library, together with: 10 µM Mg2+","relative to: high Mg2+ state, higher = stronger signaling",fold induction,7.51
ACACCGTC,SALL4 full length isoform B,universal PBM,"double-stranded DNA, one strand shown, in vitro","not given, 8-mer, flanks averaged, mean of replicates",higher = stronger binding,E-score,-0.147

# A few entries again (further values, each from its own experiment):
Substance,target,test,system,conditions,scale,endpoint,value
GTTCTAGA,SALL4 full length isoform B,universal PBM,"double-stranded DNA, one strand shown, in vitro","not given, 8-mer, flanks averaged, mean of replicates",higher = stronger binding,E-score,0.0247
